Experimental data collected from several papers.
Lines come from different studies, so protocols differ.
Organism: Staphylococcus aureus

The MIC of `CC[C@H](C)[C@H](N)C(=O)N[C@@H](CC(C)C)C(=O)NCC(=O)N[C@@H](CCC(=O)O)C(=O)N[C@H](C(=O)N[C@@H](Cc1c[nH]c2ccccc12)C(=O)N[C@@H](CCCCN)C(=O)NCC(=O)N[C@H](C(=O)N[C@@H](CCCCN)C(=O)N[C@@H](CC(=O)O)C(=O)N[C@H](C(=O)N[C@@H](CC(C)C)C(N)=O)[C@@H](C)CC)[C@@H](C)CC)[C@@H](C)CC` is reported as greater than 100 µM (broth microdilution; MRSA ATCC 33591, Mueller-Hinton broth; 16 h, 37 °C).
`CC[C@H](C)[C@H](NC(=O)[C@H](CC(C)C)NC(=O)[C@H](CCCNC(=N)N)NC(=O)[C@@H](N)CCCNC(=N)N)C(=O)N[C@@H](CCCNC(=N)N)C(=O)N[C@H](C(=O)N[C@@H](CCCCN)C(=O)N[C@H](C(=O)NCC(=O)N1CCC[C@H]1C(=O)N[C@H](C(=O)N[C@H](C(=O)N[C@@H](Cc1ccc(O)cc1)C(=O)N[C@@H](CCCCN)C(=O)N[C@@H](Cc1ccc(O)cc1)C(=O)N[C@@H](Cc1ccccc1)C(=O)N[C@@H](CCCCN)C(=O)N[C@@H](CCCCN)C(=O)N[C@@H](CCC(N)=O)C(=O)N[C@@H](CC(C)C)C(=O)N[C@@H](CC(C)C)C(=O)N[C@@H](CCCCN)C(=O)N[C@@H](CCCCN)C(N)=O)[C@@H](C)CC)[C@@H](C)CC)[C@@H](C)O)[C@@H](C)O` has an MIC of greater than 128 µM (CCARM 3090, methicillin-resistant, Mueller-Hinton broth; 24 h).
The MIC of `CN[C@H](CC(C)C)C(=O)N[C@H]1C(=O)N[C@@H](CC(N)=O)C(=O)N[C@H]2C(=O)N[C@H]3C(=O)N[C@H](C(=O)N[C@H](C(=O)O)c4cc(O)cc(O)c4-c4cc3ccc4O)[C@H](O)c3ccc(c(Cl)c3)Oc3cc2cc(c3O[C@@H]2O[C@H](CO)[C@@H](O)[C@H](O)[C@H]2O[C@H]2C[C@](C)(N)[C@H](O)[C@H](C)O2)Oc2ccc(cc2Cl)[C@H]1O` is reported as 1 µg/mL (methicillin-resistant).
`CC[C@H](C)[C@H](NC(=O)[C@H](Cc1ccccc1)NC(=O)[C@@H](NC(=O)[C@H](Cc1ccccc1)NC(=O)[C@@H]1CCCN1C(=O)[C@@H](NC(=O)[C@H](C)N)[C@@H](C)CC)[C@@H](C)CC)C(=O)N[C@@H](Cc1c[nH]c2ccccc12)C(=O)N[C@@H](CCCNC(=N)N)C(=O)N[C@@H](CC(C)C)C(=O)N[C@@H](CC(C)C)C(=O)N[C@@H](CCCNC(=N)N)C(=O)N[C@@H](CCCCN)C(=O)NCC(N)=O` has an MIC of 1.88 µM (broth microdilution; ATCC 19609; 18 h, 37 °C).
For `CCCCCC(=O)N[C@@H](CCCNC(=N)N)C(=O)N[C@@H](CCCNC(=N)N)C(=O)N[C@@H](CCCNC(=N)N)C(=O)N[C@@H](CCCNC(=N)N)C(=O)N[C@H](C(=O)N[C@@H](CC(C)C)C(=O)N[C@H](C(=O)N[C@@H](CCCNC(=N)N)C(=O)N[C@@H](CCCNC(=N)N)C(=O)N[C@H](C(=O)N[C@@H](CC(C)C)C(=O)N[C@@H](CCCNC(=N)N)C(=O)N[C@@H](CC(C)C)C(=O)N[C@@H](CCCNC(=N)N)C(=O)N[C@@H](CO)C(=O)N[C@@H](CO)C(=O)N[C@@H](C)C(=O)N[C@@H](Cc1ccc(O)cc1)C(N)=O)C(C)C)[C@@H](C)CC)[C@@H](C)CC`, the MIC was 16 µM (broth microdilution; 24 h, 37 °C).
`CCn1cc(C(=O)O)c(=O)c2cc(F)c(N3CCNCC3)cc21` has an MIC of 64 µM (1199B (NorA overexpressing)).
With `Nc1nc(/C(=N/O)C(=O)N[C@@H]2C(=O)N3C(C(=O)O)=C(/C=C4\CCN([C@@H]5CCNC5)C4=O)CS[C@H]23)ns1` the MIC was 0.5 µg/mL (mecA−, antibiotic-susceptible).
With `CCCCCCCCCC(=O)N[C@@H](Cc1c[nH]c2ccccc12)C(=O)N[C@H](CC(N)=O)C(=O)N[C@@H](CC(=O)O)C(=O)N[C@@H]1C(=O)NCC(=O)N[C@@H](CCCN)C(=O)N[C@@H](CC(=O)O)C(=O)N[C@H](C)C(=O)N[C@@H](CC(=O)O)C(=O)NCC(=O)N[C@H](CO)C(=O)N[C@@H]([C@H](C)CC(=O)O)C(=O)N[C@@H](CC(=O)c2ccccc2N)C(=O)O[C@@H]1C` the MIC was 0.125 µg/mL (broth microdilution; VISA LIM strain 2, Mueller-Hinton broth, Mg2+ 10 mg/L; 16 h, with: Ca2+ 10 mM).
With `CC[C@H](C)[C@H](NC(=O)[C@H](Cc1c[nH]c2ccccc12)NC(=O)[C@@H](NC(=O)[C@@H](NC(=O)[C@@H](NC(=O)[C@H](CCCNC(=N)N)NC(=O)[C@@H](N)CCCNC(=N)N)[C@@H](C)CC)[C@@H](C)O)[C@@H](C)CC)C(=O)N[C@H](C(=O)N[C@H](C(=O)N[C@@H](CCCNC(=N)N)C(=O)N[C@@H](CCCNC(=N)N)C(N)=O)[C@@H](C)CC)[C@@H](C)O` the MIC was 128 µM (MRSA 43300; 24 h, 37 °C).
With `CC[C@H](C)[C@H](NC(=O)[C@H](CC(C)C)NC(=O)[C@H](CCCNC(=N)N)NC(=O)[C@@H](N)CCCNC(=N)N)C(=O)N[C@@H](CCCNC(=N)N)C(=O)N[C@@H](CCCCN)C(=O)N[C@@H](CC(C)C)C(=O)N[C@@H](CCCCN)C(=O)NCC(=O)N1CCC[C@H]1C(=O)N[C@@H](CCCCN)C(=O)N[C@H](C(=O)N[C@@H](Cc1ccc(O)cc1)C(=O)N[C@@H](CC(C)C)C(=O)N[C@@H](Cc1ccc(O)cc1)C(=O)N[C@@H](Cc1ccccc1)C(=O)N[C@@H](CCCCN)C(=O)N[C@@H](CC(C)C)C(=O)N[C@@H](CCC(N)=O)C(=O)N[C@@H](CC(C)C)C(=O)N[C@@H](CC(C)C)C(=O)N[C@@H](CCCCN)C(=O)N[C@@H](CCCCN)C(N)=O)[C@@H](C)CC` the MIC was 16 µM (CCARM 3090, methicillin-resistant, Mueller-Hinton broth; 24 h).
With `CC[C@H](C)[C@H](NC(=O)CN)C(=O)NCC(=O)N[C@@H](C)C(=O)N[C@H](C(=O)N[C@@H](CC(C)C)C(=O)N[C@@H](CCCCN)C(=O)N[C@H](C(=O)N[C@@H](CC(C)C)C(=O)N[C@H](C(=O)N[C@H](C(=O)NCC(=O)N[C@@H](CC(C)C)C(=O)N1CCC[C@H]1C(=O)N[C@@H](C)C(=O)N[C@@H](CC(C)C)C(=O)N[C@H](C(=O)N[C@@H](CO)C(=O)N[C@@H](Cc1c[nH]c2ccccc12)C(=O)N[C@H](C(=O)N[C@@H](CCCCN)C(=O)N[C@@H](CCCNC(=N)N)C(=O)N[C@@H](CCCCN)C(=O)N[C@@H](CCCNC(=N)N)C(=O)N[C@@H](CCC(N)=O)C(=O)N[C@@H](CCC(N)=O)C(N)=O)[C@@H](C)CC)[C@@H](C)CC)[C@@H](C)O)[C@@H](C)O)C(C)C)C(C)C` the MIC was 4 µM (broth microdilution, MH medium; KCTC 1621; 16 h, 37 °C).
For `CC[C@H](C)[C@H](NC(=O)[C@H](CC(C)C)NC(=O)[C@H](CCCNC(=N)N)NC(=O)[C@@H](N)CCCNC(=N)N)C(=O)N[C@@H](CCCNC(=N)N)C(=O)N[C@H](C(=O)N[C@@H](CC(C)C)C(=O)N[C@H](C(=O)NCC(=O)N1CCC[C@H]1C(=O)N[C@H](C(=O)N[C@H](C(=O)N[C@@H](Cc1ccc(O)cc1)C(=O)N[C@@H](CC(C)C)C(=O)N[C@@H](Cc1ccc(O)cc1)C(=O)N[C@@H](Cc1ccccc1)C(=O)N[C@@H](CCCCN)C(=O)N[C@@H](CC(C)C)C(=O)N[C@@H](CCC(N)=O)C(=O)N[C@@H](CC(C)C)C(=O)N[C@@H](CC(C)C)C(=O)N[C@@H](CCCCN)C(=O)N[C@@H](CCCCN)C(N)=O)[C@@H](C)CC)[C@@H](C)CC)[C@@H](C)O)[C@@H](C)O`, the MIC was greater than 128 µM (CCARM 3089, methicillin-resistant, Mueller-Hinton broth; 24 h).
`CC[C@H](C)[C@H](N)C(=O)N[C@@H](CCCNC(=N)N)C(=O)N[C@H](C(=O)N[C@@H](Cc1c[nH]c2ccccc12)C(=O)N[C@@H](Cc1ccccc1)C(=O)N[C@H](C(=O)N[C@@H](CCCCN)C(=O)N[C@H](C(=O)N[C@@H](CCCNC(=N)N)C(=O)N[C@@H](CCCCN)C(=O)N[C@@H](Cc1c[nH]c2ccccc12)C(=O)N[C@@H](CCCCN)C(=O)N[C@@H](C)C(=O)N[C@H](C(=O)N[C@@H](Cc1ccc(O)cc1)C(=O)N[C@@H](Cc1c[nH]cn1)C(=O)N[C@H](C(N)=O)[C@@H](C)O)[C@@H](C)CC)C(C)C)[C@@H](C)CC)C(C)C` has an MIC of 100 µM (broth dilution; ATCC 25923, Mueller-Hinton broth; 24 h, 37 °C).
